Measured values collected from several papers.
Each numbered part is a random draw from the data of one study; scales do not carry over between parts. Changes are numbered by the printed parent chain.
Chain of UniProt P28335 (whole entry, looked up): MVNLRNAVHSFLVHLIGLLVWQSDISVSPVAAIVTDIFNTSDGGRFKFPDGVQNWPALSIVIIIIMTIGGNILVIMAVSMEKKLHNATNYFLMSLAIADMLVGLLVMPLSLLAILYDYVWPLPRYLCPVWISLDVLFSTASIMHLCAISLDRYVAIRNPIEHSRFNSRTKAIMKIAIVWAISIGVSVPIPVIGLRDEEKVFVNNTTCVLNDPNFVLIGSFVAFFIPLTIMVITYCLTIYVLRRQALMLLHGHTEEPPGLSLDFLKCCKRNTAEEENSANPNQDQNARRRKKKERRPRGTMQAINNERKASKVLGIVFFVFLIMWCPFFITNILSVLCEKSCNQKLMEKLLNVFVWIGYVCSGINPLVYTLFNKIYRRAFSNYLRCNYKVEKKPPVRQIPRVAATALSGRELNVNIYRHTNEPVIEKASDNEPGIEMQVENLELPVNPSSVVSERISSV

Set 1 — target: vanadate, free oxyanion; method: microfluidic competitive inhibition; medium: in vitro, cell-free expressed; tested at: not given; reading: lower = stronger binding
Setting: derived from inhibition constants, unchanged parent 676 nM
Parent: PafA, mature enzyme, eGFP fusion (Elizabethkingia meningoseptica, UniProt Q9KJX5); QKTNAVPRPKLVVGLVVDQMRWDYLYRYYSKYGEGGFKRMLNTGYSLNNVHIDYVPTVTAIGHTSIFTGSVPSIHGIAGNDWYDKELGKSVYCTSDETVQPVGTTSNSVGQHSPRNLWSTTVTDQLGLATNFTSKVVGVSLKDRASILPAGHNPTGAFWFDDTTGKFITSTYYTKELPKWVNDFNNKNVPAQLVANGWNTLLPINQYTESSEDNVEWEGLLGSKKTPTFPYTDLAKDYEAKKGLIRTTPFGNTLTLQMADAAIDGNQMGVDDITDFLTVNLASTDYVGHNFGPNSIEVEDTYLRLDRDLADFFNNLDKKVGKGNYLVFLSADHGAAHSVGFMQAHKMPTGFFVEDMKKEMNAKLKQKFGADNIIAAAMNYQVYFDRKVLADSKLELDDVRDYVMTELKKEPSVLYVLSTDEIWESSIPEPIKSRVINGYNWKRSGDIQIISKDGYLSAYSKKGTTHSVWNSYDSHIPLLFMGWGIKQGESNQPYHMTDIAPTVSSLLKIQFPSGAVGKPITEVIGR
| Substitution | oxyanion analog dissociation constant [µM] |
| --- | --- |
| P101G | 0.727 |
| K346G | 0.526 |
| D391G | 0.673 |
| K318V | 0.784 |
| G369V | 0.666 |
| A375V | 1.16 |
| M258G | 0.583 |
| S392V | 0.653 |
| M360G | 0.787 |
| Y302V | 2.23 |
| H112V | 1.13 |
| I296V | 0.698 |
| N437V | 1.05 |
| A129V | 0.547 |
| F384G | 0.486 |
| V181G | 0.976 |
| A331V | 2.11 |
| S505V | 0.837 |
| S338G | 0.552 |
| I52G | 1.56 |
| T171G | 0.597 |

Set 2 — method: protein binding microarray; molecule type: double-stranded DNA, one strand shown; medium: in vitro; tested at: not given; relative to: not given; reading: higher = stronger binding
Target: Histone acetyltransferase KAT6A, both winged helices, GST fusion (KAT6A, Homo sapiens, UniProt Q92794, residues 1-181)
Setting: 8-mer, flanks averaged, mean of 2 arrays, mostly near background
Construct (chain): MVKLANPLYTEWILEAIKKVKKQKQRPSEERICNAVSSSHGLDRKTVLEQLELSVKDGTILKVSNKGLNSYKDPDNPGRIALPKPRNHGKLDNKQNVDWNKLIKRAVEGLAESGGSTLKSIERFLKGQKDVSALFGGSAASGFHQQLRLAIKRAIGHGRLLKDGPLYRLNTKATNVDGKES
| Oligonucleotide | E-score |
| --- | --- |
| AAGTTGGT | -0.225 |
| GAGGTACC | -0.0171 |
| CACACGAC | 0.026 |
| AATCAAAC | 0.000375 |
| ATGGCTAA | -0.1 |
| CTATCGGA | 0.121 |
| CGTTTATC | 0.181 |
| GAGAAGCA | -0.183 |

Set 3 — method: RNA Bind-n-Seq; molecule type: RNA; medium: in vitro; tested at: 90 pmol; setting: 4-mer, random 30-nt RNA, single round; relative to: input library; reading: higher = stronger binding
Target: ATP-dependent RNA helicase DDX3X, helicase core (DDX3X, Homo sapiens, UniProt O00571, residues 132-607)
Chain of UniProt O00571 (132-607, looked up): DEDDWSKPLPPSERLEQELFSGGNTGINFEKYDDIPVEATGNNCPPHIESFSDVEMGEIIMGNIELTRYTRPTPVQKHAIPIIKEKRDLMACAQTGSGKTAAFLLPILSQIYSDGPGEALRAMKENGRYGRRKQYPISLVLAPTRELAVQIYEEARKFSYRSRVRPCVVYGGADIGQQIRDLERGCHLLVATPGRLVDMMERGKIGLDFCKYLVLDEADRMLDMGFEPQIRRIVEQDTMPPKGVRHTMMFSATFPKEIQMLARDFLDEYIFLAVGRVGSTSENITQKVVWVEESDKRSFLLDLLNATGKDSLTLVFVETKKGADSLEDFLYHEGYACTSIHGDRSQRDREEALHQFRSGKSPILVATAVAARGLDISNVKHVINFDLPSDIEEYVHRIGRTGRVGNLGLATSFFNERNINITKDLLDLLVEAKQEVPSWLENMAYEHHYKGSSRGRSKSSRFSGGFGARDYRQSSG
Together with: 3 µM iPr-DMDA-PatA, 2 mM ADP, 2 mM phosphate
| Oligonucleotide | 4-mer enrichment [fold] |
| --- | --- |
| ACUU | 0.963 |
| GAUG | 0.973 |
| GACC | 1.1 |
| GGGU | 0.933 |
| GCCU | 0.731 |
| AGUA | 1.22 |
| UCGA | 1.06 |
| GUCC | 0.894 |

Further values, each from its own experiment
| Substance | target or system | test | test system | conditions | measurement | value |
| --- | --- | --- | --- | --- | --- | --- |
| COX4I1 (Homo sapiens, UniProt P13073) | SDHA (Homo sapiens, UniProt P31040) | cross-linking MS | cell fractions | together with: DSSO | cross-linked residues | K60 to K167 |
| Cc1cc2c(-c3ccco3)cnc(N[C@H]3CCN(C)C[C@@H]3C(=O)NC3CCCCC3)c2[nH]c1=O | 5-hydroxytryptamine receptor 2C (HTR2C, Homo sapiens, UniProt P28335) | ligand displacement | – | 10 µM | inhibition | 3.86% |
| RRM2 (Homo sapiens, UniProt P31350) | HSPA9 (Homo sapiens, UniProt P38646) | cross-linking MS | cell fractions | together with: DSSO | cross-linked residues | K283 to K300 |
| PDIA4 (Homo sapiens, UniProt P13667) | LRP2 (Homo sapiens, UniProt P98164) | cross-linking MS | cell fractions | together with: DSSO | cross-linked residues | K163 to S546 |
| NAP1L1 (Homo sapiens, UniProt P55209) | NAP1L4 (Homo sapiens, UniProt Q99733) | cross-linking MS | cell fractions | together with: DSSO | cross-linked residues | K87 to K105 |
